Experimental data from different studies.
Protocols differ between the studies behind these lines. Numbers after ± are the reported error.

Cc1nn(-c2ccc(S(=O)(=O)N[C@@H](CO)CC(C)C)cc2)c2nn3nnnc3nc12 — apoptotic cells (PC-3; PI/Hoechst staining; 0.5 µM, 24 h): 8.5 ± 2.12%
CC(=O)N[C@@H](CC(N)=O)C(=O)NCC(=O)N[C@@H](C)C(=O)N[C@@H](C)C(N)=O — rate constant k1 (Asn-Gly peptide isomerisation to succinimide; 1H NMR time course; pH 6.3, 55 °C): 0.0235 h⁻¹
COc1cc(CNC(=O)C[C@H](C)CCC=C(C)C)ccc1OCc1cn(-c2ccc(Cl)c(Cl)c2)nn1 — growth percent (IGROV-1 ovarian cancer cells; SRB; 10 µM, 48 h): 83.1%
CCCCN1C(=O)c2cccc3c(NCCCCCCN4CCOCC4)ccc(c23)C1=O — blue shift of emission maximum (lysosomes; HEK293; lysosomal micro-polarity; baseline: water): 37 nm
O=Cc1c(O)ccc2ccccc12 — log2 fold change (HUVEC; RNA sequencing, refers to: APLN; 75 µM, 24 h; baseline: DMSO): -2.82
COc1cc(CCC(C)=O)ccc1O — IC50 (mAb 6-AT6; antibody binding, indirect competitive ELISA; added: coating antigen 3-OVA): > 4 µg/mL
COc1cc(CNC(=O)C[C@H](C)CCC=C(C)C)ccc1OCc1cn(-c2ccccc2F)nn1 — growth (MDA-MB-231/ATCC; SRB; 10 µM, 48 h): 66.8%
COc1ccc(CC2COC(=O)C2Cc2ccc3c(c2)OCO3)cc1OC (mixture of isomers) — protein level (A2780cis; western blot, refers to: CDK1; 3.25 µM, 72 h): decreased
COc1cc(CNC(=O)C[C@H](C)CCC=C(C)C)ccc1OCc1cn(-c2ccc(C#N)cc2)nn1 — growth percent (MCF7 breast cancer cells; SRB; 10 µM, 48 h): 42.3%
COc1ccc(S(=O)(=O)NCc2c[nH]nc2-c2cccs2)cc1 — parasitemia (Plasmodium vivax; reinvasion; 1, human, human red blood cells; 3× EC50, 20 h): 0%
COc1cc(CNC(=O)C[C@H](C)CCC=C(C)C)ccc1OCc1cn(-c2cccc([N+](=O)[O-])c2)nn1 — growth (A549/ATCC; SRB; 10 µM, 48 h): 56.8%
C=C(CC)C(=O)c1ccc(OCC(=O)NCCNC(=O)COc2ccc(C(=O)C(=C)CC)c(Cl)c2Cl)c(Cl)c1Cl — inhibition (glutathione S-transferase, human; enzyme activity; CoC1 cell lysate; 0.2 µM): ~25%
